# Measured values from different studies.
# Each line is one published result; not all experiments were run side by side. Several values in a cell are separate wells, animals, samples, runs or records. Numbers after ± are the reported error.
Structure (SMILES),target or system,test,system,conditions,scale,measurement,value
CCNCCc1c[nH]c2cccc(O)c12.CCNCCc1c[nH]c2cccc(O)c12.O=C(O)CCC(=O)O,,,C57BL/6J mice,"subcutaneous, 0.03 mg/kg, 30 min session",,distance travelled,2240 ± 351 cm
[Ca+2],Halyomorpha halys,"inward current, inhibitor, electrophysiology",,"1 mM, C-terminal deletion",,inhibition,7.62%
CSc1cccc(CC(=O)N[C@H]2CCOC2=O)c1,ExpR2 (Pectobacterium carotovorum),"cellulase activity, agonist","Pectobacterium carotovorum, single-ExpR2 strain","200 µM, 4 h",relative to: OHHL,activation,13%
CCCNCCc1c[nH]c2cccc(O)c12.CCCNCCc1c[nH]c2cccc(O)c12.O=C(O)/C=C/C(=O)O,,,C57BL/6J mice,"subcutaneous, 3 mg/kg, 30 min",,distance travelled,2930 ± 305 cm
CC[C@H](C)[C@@H]1NC(=O)[C@@H]2CCCN2C(=O)[C@H](CC(C)C)NC(=O)[C@H](CC(C)C)NC(=O)CNC(=O)[C@@H](NC(=O)[C@@H](NC(=O)[C@H](CC(=O)O)NC(=O)CNC(=O)[C@@H](NC(=O)[C@H](C)NC(=O)CNC(=O)[C@H](CCCCN)NC(=O)[C@H](CC(C)C)NC(=O)[C@H](CC(C)C)NC(=O)[C@H](CCCCN)NC(=O)CNC(=O)[C@@H](NC(=O)[C@@H](N)CC(C)C)C(C)C)C(C)C)C(C)C)CSSC[C@@H](C(=O)O)NC1=O,,"RNA-seq, measured: Ppp1r35","mouse, traumatic brain injury model, frontal cortex and hippocampus",dose not given,relative to: TBI alone,log2 fold change,-0.925
CS(=O)(=O)CCCn1c(Cn2c(=O)n(CC(F)(F)F)c3ccncc32)cc2cc(Cl)ccc21,respiratory syncytial virus,RT-qPCR,"hospitalized infants 1-24 months, nasal swab","oral, 2, 1.5 or 1 mg/kg daily, day 6, low dose by age cohort",relative to: placebo,LS mean difference vs placebo,0.2 log10 copies/mL
COc1c(C)c2c(c(O)c1C/C=C(\C)CCC(=O)O)C(=O)OC2,bladder cancer cell lines,cell proliferation,,average over lines,,IC50,676 nM
CCCCCCCCCCCCCCCC[N+](C)(C)CCCCCC[N+](C)(C)CCCCCCCCCCCCCCCC.[Br-].[Br-],influenza A virus A/PR/8/34 (H1N1),,,"concentration not given, post-treatment",,protection,59.2 ± 9.9%
COc1c(CCC[P+](c2ccccc2)(c2ccccc2)c2ccccc2)cc2c(c1OC)OCO2.[I-],NCI-H322M,SRB,,,,LC50,> -4 log M
CC(C)(C)NCCc1c[nH]c2cccc(O)c12.CC(C)(C)NCCc1c[nH]c2cccc(O)c12.O=C(O)/C=C/C(=O)O,,,C57BL/6J mice,"subcutaneous, 30 mg/kg",,head twitch count,7.3 ± 1.2
CCCCCCCCCCCCCCCC[N+](C)(C)Cc1ccc(C[N+](C)(C)CCCCCCCCCCCCCCCC)cc1.[Br-].[Br-],influenza A virus A/PR/8/34 (H1N1),,,"concentration not given, pre-treatment",,HA titre reduction,2 log units
C[C@H]1O[C@@H](O[C@H]2CC[C@@]3(C)[C@@H](CC[C@]4(C)[C@@H]3C=C[C@]35OC[C@@]6(CCC(C)(C)C[C@H]63)[C@@H](O)C[C@]54C)[C@]2(C)CO)[C@H](O)[C@@H](O[C@@H]2O[C@H](CO)[C@@H](O)[C@H](O)[C@H]2O)[C@H]1O,,histology,"AAV8 empty vector mice, liver","dose not given, high dose, with: chronic-plus-binge ethanol",,Oil Red O area,0.064% and 0.08% and 0.062%
CC[C@H](C)[C@H](NC(=O)[C@H](C)NC(=O)[C@H](CCCCN)NC(=O)[C@H](CC(C)C)NC(=O)[C@H](C)NC(=O)[C@@H](NC(=O)[C@H](Cc1c[nH]cn1)NC(=O)[C@H](CC(C)C)NC(=O)[C@@H](NC(=O)[C@@H](NC(=O)[C@H](CCCCN)NC(=O)[C@H](C)NC(=O)[C@H](C)NC(=O)[C@H](CO)NC(=O)[C@H](CCCCN)NC(=O)[C@H](Cc1ccccc1)NC(=O)[C@@H](NC(=O)[C@H](CCCCN)NC(=O)[C@H](CC(C)C)NC(=O)[C@H](Cc1ccccc1)NC(=O)[C@H](CO)NC(=O)[C@H](CCCCN)NC(=O)[C@H](Cc1c[nH]c2ccccc12)NC(=O)[C@H](CCCCN)NC(C)=O)[C@@H](C)O)[C@@H](C)O)C(C)C)[C@@H](C)O)C(=O)N[C@@H](CO)C(=O)N[C@@H](CO)C(N)=O,Staphylococcus aureus,,ATCC 29213,,,MBC90,8 µg/mL
CN1CCN(S(=O)(=O)c2cc([N+](=O)[O-])ccc2N(CCOS(C)(=O)=O)CCOS(C)(=O)=O)CC1,,,"NSG mice, sample CD PDX","intraperitoneal, 25 mg/kg weekly x3",,event-free survival,75 days
O=C(O)/C=C/C(=O)O.Oc1cccc2[nH]cc(CCNCc3ccccc3)c12,,,C57BL/6J mice,"subcutaneous, 30 mg/kg",,head twitch count,20.2 ± 2.3
COc1cc(CCC[P+](c2ccccc2)(c2ccccc2)c2ccccc2)c(OC)c2c1OCO2.[I-],U-251,SRB,,,,TGI,-4.76 log M
CCCCNCCc1c[nH]c2cccc(O)c12.O=C(O)/C=C/C(=O)O,,,C57BL/6J mice,"subcutaneous, 10 mg/kg, 30 min",,distance travelled,2400 ± 293 cm
NCCc1ccc(Oc2ccc(O)cc2)c(I)c1,,,wild-type mice,"ip, 50 mg/kg, 60 min",relative to: saline,maximum body temperature change,-6 ± 0.4 °C
CCC(CC)O[C@@H]1C=C(C(=O)O)C[C@H](N)[C@H]1NC(C)=O,influenza A virus A/PR/8/34 (H1N1),,,"concentration not given, post-treatment",,HA titre reduction,8 log units
C=CCNCCc1c[nH]c2cccc(O)c12.C=CCNCCc1c[nH]c2cccc(O)c12.O=C(O)/C=C/C(=O)O,,,C57BL/6J mice,"subcutaneous, 30 mg/kg, 30 min",,distance travelled,1360 ± 337 cm
COc1ccc(OC)c(C(O)C(C)N)c1 (stereo not shown),human iPSC-derived cardiomyocytes,"MyBP-C/MYH ratio, plate-normalised SD score",,"concentration not given, primary screen",direction not given,activity score,-3.2
O=c1ccn([C@@H]2O[C@](F)(CO)[C@@H](O)[C@H]2O)c(=O)[nH]1,human respiratory syncytial virus,,recombinant reporter virus,"concentration not given, scale 0 to 100, with: adenosine 0.13 µM",,normalized viral replication,1.55 and 1.7 and 1.49
COc1ccc(-n2nc(C(C)=O)s/c2=N\N=C(/C)c2ccc(NC(C)=O)cc2)cc1,WI-38,,,10 µM,,toxicity,95.7%
Cc1cn(-c2cc(NC(=O)c3ccc(C)c(Nc4nccc(-c5cccnc5)n4)c3)cc(C(F)(F)F)c2)cn1,,,Homo sapiens,"150 mg, 6 months",direction not given,NPI score,6.4 ± 6.8
CN1CCN(C2(CNC3CCN(c4cccc(-c5cc6cc(F)ccc6[nH]5)c4)CC3)CCC2)CC1,RXF 393,,,,,GI50,1530 nM
